Assay results gathered from unrelated publications.
Parts stem from different laboratories: compare values within a part only.
Sequence of UniProt Q9Y261 (142-269, looked up): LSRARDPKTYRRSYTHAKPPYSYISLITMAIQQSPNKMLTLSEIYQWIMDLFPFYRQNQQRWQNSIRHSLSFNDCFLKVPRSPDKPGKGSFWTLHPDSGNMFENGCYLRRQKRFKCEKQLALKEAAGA

Set 1
Target: Sal-like protein 4, full length isoform A (SALL4, Homo sapiens, UniProt Q9UJQ4, residues 1-1053)
Sequence of UniProt Q9UJQ4 (whole entry, looked up): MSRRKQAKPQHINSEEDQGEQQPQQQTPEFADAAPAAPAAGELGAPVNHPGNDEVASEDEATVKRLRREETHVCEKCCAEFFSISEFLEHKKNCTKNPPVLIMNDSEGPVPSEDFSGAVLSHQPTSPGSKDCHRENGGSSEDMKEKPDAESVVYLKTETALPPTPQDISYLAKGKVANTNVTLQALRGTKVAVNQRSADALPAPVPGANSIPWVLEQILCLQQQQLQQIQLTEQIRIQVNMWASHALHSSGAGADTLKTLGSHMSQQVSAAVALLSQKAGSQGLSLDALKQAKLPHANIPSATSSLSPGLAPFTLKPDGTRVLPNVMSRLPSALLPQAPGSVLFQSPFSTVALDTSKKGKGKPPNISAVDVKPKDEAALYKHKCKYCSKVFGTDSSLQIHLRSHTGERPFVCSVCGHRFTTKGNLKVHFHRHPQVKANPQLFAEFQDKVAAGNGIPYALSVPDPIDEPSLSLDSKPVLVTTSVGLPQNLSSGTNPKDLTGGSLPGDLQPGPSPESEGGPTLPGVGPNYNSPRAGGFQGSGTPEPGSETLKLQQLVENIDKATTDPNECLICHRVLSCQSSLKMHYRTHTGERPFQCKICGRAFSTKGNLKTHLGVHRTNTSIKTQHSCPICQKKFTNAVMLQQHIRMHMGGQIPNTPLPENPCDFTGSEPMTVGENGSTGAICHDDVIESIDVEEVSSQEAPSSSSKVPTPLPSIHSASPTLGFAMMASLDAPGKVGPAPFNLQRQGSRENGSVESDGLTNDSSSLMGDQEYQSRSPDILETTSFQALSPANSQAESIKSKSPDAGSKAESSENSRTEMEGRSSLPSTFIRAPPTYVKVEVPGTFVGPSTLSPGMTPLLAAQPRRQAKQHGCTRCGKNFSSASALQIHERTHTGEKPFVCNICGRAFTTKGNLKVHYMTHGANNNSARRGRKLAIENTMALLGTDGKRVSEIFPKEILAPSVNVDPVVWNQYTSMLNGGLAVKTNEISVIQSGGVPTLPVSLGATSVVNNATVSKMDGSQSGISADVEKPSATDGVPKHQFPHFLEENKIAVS
Technique: universal PBM
Form: double-stranded DNA, one strand shown
Sample: in vitro
Tested at: 600 nM
Setting: 8-mer, flanks averaged, mean of replicates
Direction: higher = stronger binding
Oligonucleotide | E-score
GTCCTTAA | 0.174
AGCCCACA | -0.0892
AATCGGGC | -0.117

Set 2
Target: Interferon regulatory factor 7, full length, phosphomimetic (IRF7, Homo sapiens, UniProt Q92985, residues 1-503, S101K/S471D/S472D/S475D/S476D/S477D/S483D/S484D/S487D)
Sequence of UniProt Q92985 (whole entry, unmodified, looked up): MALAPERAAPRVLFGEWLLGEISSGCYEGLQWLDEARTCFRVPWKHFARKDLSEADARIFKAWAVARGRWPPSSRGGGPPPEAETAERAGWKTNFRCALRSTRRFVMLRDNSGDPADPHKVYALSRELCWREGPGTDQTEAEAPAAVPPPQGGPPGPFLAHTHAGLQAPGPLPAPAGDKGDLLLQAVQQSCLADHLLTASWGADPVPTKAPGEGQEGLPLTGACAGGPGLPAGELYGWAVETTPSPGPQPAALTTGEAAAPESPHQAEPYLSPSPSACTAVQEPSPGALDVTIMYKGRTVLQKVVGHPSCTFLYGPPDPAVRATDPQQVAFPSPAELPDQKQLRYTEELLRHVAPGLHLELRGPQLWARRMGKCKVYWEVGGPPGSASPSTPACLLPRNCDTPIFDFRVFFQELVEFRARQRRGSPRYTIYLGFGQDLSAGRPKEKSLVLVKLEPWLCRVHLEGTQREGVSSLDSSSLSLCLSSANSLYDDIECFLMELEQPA
Technique: protein-binding microarray
Form: double-stranded DNA, one strand shown
Sample: in vitro
Tested at: 250 nM
Setting: 60-bp whole probe
Added: salmon DNA 0.4 mg/ml
Relative to: random background probes
Direction: higher = stronger binding
Oligonucleotide | log fluorescence [z-score]
GCCTAGCACTTAGGTCTCCTACGGCTTTAGTGCTAGGTCTTGATTCGCTTGACGCTGCTG | -0.421
GCCTAGCACTTAGATATCAGTTGCGATTAGTGCTAGGTCTTGATTCGCTTGACGCTGCTG | 0.605
GCCTAGCACTTCGATTTCAGTATCGATTAGTGCTAGGTCTTGATTCGCTTGACGCTGCTG | 1.69
GCCTAGCACGACGGACTGGACTTTCGGGAAGTGCTAGTCTTGATTCGCTTGACGCTGCTG | -0.659

Mixed results
Molecule | target | test | test system | setting | how to read | measurement | value
PhoQ, residues 284 288 289 292 302 303 TTCLQL | PhoP, residues 12 14 15 18 19 TPWLV (Escherichia coli, UniProt P23836) | Sort-seq, refers to: YFP reporter | E. coli | PhoQ-PhoP variant library, added: 10 µM Mg2+ | relative to: high Mg2+ state, higher = stronger signaling | fold induction | 1.44
ATTGTAGG | Hepatocyte nuclear factor 3-beta, forkhead domain (FOXA2, Homo sapiens, UniProt Q9Y261, residues 142-269) | protein-binding microarray | double-stranded DNA, one strand shown, in vitro | not given, k-mer, scored over probes, only values ≥0.25 | higher = stronger binding | E-score | 0.281

For quick reference, copied from above (set 1):
Oligonucleotide | E-score
GTCCTTAA | 0.174
